Assay results from different studies.
Parts stem from different laboratories: compare values within a part only.
UniProt P51817, sequence (whole entry, looked up): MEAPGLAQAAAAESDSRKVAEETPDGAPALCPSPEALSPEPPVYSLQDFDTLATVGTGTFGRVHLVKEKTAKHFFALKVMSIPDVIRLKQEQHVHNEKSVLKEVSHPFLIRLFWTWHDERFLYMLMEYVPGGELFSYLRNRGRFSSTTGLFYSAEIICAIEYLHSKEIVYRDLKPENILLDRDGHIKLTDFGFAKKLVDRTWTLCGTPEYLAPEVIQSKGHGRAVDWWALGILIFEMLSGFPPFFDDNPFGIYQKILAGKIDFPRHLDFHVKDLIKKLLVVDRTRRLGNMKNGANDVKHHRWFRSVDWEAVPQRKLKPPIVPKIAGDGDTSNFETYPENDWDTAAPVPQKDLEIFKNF
UniProt P16591, sequence (whole entry, looked up): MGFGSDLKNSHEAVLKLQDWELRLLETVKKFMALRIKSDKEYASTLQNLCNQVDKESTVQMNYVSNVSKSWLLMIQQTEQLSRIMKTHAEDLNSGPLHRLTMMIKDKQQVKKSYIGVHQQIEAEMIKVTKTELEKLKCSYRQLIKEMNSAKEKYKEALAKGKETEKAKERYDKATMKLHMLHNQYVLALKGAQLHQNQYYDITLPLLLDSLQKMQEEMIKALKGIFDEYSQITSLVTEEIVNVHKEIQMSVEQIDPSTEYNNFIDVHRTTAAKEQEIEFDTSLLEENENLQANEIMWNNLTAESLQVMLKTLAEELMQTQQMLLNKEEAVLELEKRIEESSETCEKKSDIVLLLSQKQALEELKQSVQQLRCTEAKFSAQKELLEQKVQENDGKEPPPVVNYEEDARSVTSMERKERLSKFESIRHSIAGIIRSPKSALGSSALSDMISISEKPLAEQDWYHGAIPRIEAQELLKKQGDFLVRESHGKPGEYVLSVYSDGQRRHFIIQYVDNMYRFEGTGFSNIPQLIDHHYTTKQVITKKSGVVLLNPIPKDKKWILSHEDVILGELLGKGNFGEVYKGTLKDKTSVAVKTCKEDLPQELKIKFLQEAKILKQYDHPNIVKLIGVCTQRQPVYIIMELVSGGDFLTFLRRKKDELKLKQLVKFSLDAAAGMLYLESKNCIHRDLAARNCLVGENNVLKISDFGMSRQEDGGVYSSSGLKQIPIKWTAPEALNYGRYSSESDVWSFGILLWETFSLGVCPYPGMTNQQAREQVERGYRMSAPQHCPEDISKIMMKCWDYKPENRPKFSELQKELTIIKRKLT
UniProt P27448, sequence (whole entry, looked up): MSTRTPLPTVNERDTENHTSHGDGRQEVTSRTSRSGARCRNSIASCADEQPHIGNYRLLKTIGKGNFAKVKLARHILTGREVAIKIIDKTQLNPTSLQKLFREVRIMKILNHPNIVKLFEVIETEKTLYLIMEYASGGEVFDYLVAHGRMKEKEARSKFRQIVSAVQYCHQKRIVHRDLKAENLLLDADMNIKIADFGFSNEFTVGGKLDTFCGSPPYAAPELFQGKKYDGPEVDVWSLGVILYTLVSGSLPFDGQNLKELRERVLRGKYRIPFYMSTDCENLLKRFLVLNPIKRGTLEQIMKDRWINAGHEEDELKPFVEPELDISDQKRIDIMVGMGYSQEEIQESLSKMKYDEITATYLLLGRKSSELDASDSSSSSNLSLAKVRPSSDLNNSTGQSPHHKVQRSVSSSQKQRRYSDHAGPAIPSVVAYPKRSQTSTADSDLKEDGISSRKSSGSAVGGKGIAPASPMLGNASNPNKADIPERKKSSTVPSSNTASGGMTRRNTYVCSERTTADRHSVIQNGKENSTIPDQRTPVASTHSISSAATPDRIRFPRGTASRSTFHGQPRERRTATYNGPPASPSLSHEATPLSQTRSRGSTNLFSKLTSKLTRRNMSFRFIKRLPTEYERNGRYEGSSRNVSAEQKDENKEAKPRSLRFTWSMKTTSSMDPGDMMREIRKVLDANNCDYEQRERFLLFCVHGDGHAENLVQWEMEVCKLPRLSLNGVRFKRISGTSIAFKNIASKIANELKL
UniProt P31749, sequence (whole entry, looked up): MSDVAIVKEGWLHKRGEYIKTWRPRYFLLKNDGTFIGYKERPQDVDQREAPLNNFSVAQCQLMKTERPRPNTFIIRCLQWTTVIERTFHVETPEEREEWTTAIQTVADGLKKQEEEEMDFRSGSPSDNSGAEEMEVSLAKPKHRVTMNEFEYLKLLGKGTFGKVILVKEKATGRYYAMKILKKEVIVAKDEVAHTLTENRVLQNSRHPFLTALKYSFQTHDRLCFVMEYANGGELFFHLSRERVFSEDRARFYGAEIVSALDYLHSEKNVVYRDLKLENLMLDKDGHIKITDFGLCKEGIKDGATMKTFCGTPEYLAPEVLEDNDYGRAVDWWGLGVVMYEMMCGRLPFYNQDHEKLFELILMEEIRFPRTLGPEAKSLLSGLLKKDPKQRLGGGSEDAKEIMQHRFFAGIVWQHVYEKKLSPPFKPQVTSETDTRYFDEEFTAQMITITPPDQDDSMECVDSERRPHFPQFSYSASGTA
UniProt Q16512, sequence (whole entry, looked up): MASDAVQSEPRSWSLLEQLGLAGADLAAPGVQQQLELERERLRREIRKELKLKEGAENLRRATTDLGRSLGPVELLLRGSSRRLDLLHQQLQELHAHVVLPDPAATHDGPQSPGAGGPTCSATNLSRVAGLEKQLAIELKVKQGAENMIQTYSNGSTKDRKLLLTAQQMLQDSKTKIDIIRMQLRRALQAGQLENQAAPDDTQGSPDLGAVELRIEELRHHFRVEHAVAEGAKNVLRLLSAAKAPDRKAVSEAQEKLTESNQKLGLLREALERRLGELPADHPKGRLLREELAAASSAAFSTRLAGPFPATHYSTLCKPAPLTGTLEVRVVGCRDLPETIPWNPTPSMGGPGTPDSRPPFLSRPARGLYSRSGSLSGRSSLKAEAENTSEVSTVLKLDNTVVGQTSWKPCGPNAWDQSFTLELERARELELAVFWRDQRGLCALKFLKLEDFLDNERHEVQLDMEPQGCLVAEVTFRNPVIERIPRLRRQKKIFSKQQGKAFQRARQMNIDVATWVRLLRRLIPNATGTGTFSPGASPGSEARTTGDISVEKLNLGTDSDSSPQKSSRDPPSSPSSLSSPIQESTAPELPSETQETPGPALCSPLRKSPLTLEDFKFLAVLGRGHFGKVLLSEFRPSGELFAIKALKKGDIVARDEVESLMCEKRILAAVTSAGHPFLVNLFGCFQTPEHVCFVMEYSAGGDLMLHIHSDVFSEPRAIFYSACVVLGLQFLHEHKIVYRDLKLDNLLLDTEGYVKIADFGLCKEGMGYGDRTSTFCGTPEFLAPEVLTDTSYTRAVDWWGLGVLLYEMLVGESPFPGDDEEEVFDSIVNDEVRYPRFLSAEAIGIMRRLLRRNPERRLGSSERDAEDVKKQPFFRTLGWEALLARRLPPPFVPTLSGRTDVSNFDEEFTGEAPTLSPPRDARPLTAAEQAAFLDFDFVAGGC
UniProt P07948, sequence (whole entry, looked up): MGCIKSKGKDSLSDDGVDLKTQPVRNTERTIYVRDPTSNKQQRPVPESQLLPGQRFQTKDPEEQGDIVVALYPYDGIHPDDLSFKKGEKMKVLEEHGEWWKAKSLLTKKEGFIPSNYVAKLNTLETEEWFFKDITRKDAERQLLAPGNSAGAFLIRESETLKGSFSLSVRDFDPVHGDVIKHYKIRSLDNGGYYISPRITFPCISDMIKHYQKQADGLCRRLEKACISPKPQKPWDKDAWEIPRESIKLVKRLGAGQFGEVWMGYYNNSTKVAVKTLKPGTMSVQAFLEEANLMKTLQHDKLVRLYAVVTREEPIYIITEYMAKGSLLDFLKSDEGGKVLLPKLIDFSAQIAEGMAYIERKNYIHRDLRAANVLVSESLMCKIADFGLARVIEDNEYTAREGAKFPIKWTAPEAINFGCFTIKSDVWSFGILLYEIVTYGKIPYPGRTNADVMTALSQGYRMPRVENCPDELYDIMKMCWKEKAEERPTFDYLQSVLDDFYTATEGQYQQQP
UniProt O94921, sequence (whole entry, looked up): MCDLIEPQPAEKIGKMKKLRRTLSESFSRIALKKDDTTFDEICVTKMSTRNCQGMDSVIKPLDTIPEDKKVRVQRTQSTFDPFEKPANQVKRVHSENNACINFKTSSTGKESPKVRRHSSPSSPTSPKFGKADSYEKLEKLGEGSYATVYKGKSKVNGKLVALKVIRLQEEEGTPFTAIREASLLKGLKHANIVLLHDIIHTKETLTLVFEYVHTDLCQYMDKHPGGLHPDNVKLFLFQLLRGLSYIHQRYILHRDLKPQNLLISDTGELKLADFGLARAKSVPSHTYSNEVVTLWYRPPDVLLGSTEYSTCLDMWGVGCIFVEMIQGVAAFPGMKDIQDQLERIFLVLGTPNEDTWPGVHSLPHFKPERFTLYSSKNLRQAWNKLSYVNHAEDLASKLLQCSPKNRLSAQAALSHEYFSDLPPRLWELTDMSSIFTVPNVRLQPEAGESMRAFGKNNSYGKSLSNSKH
UniProt Q9BUB5, sequence (whole entry, looked up): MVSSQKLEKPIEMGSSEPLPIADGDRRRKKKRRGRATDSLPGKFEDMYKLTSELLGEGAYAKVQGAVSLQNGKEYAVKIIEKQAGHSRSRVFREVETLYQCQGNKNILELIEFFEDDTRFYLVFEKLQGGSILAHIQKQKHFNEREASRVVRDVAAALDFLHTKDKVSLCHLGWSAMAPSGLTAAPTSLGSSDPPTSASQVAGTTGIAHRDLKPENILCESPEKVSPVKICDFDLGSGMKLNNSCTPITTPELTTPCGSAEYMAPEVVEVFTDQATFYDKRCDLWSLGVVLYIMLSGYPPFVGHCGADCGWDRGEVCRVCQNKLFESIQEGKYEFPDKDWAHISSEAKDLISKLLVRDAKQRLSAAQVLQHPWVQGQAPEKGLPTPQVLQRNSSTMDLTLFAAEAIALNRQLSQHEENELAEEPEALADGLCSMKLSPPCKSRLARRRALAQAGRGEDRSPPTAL

Block 1
SMILES: O=C(Nc1cccnn1)N1CC(C/C=C/c2cncc(Oc3ccc(C(F)(F)F)cn3)n2)C1
Method: competition with immobilised ligand
Concentration: 1 µM
target | assay | remaining binding
Aurora kinase B (AURKB, Homo sapiens, UniProt Q96GD4) | cell-free assay | 59%
Tyrosine-protein kinase Lyn (LYN, Homo sapiens, UniProt P07948) | cell-free assay | 97%
cAMP-dependent protein kinase catalytic subunit PRKX (PRKX, Homo sapiens, UniProt P51817) | cell-free assay | 92%
Vascular endothelial growth factor receptor 2 (KDR, Homo sapiens, UniProt P35968) | cell-free assay | 64%
Myosin-IIIb (MYO3B, Homo sapiens, UniProt Q8WXR4) | binding | 100%
Cyclin-dependent kinase 4, with cyclin D3 (CDK4, Homo sapiens, UniProt P11802) | cell-free assay | 94%
Serine/threonine-protein kinase TNNI3K (TNNI3K, Homo sapiens, UniProt Q59H18) | cell-free assay | 100%
Receptor-type tyrosine-protein kinase FLT3 (FLT3, Homo sapiens, UniProt P36888, ITD) | cell-free assay | 100%
Serine/threonine-protein kinase RIO3 (RIOK3, Homo sapiens, UniProt O14730) | cell-free assay | 100%
Cyclin-dependent kinase 14 (CDK14, Homo sapiens, UniProt O94921) | cell-free assay | 100%
MAP kinase-interacting serine/threonine-protein kinase 1 (MKNK1, Homo sapiens, UniProt Q9BUB5) | cell-free assay | 67%
Receptor tyrosine-protein kinase erbB-4 (ERBB4, Homo sapiens, UniProt Q15303) | cell-free assay | 100%
Tyrosine-protein kinase Fer (FER, Homo sapiens, UniProt P16591) | cell-free assay | 100%
Epidermal growth factor receptor (EGFR, Homo sapiens, UniProt P00533, del747-752/P753S) | cell-free assay | 100%
Proto-oncogene tyrosine-protein kinase receptor Ret (RET, Homo sapiens, UniProt P07949, M918T) | cell-free assay | 96%
cGMP-dependent protein kinase 2 (PRKG2, Homo sapiens, UniProt Q13237) | cell-free assay | 91%
Serine/threonine-protein kinase PAK 1 (PAK1, Homo sapiens, UniProt Q13153) | cell-free assay | 90%
Phosphatidylinositol 3-kinase catalytic subunit type 3 (PIK3C3, Homo sapiens, UniProt Q8NEB9) | cell-free assay | 88%
Serine/threonine-protein kinase 38-like (STK38L, Homo sapiens, UniProt Q9Y2H1) | cell-free assay | 100%
Receptor-type tyrosine-protein kinase FLT3 (FLT3, Homo sapiens, UniProt P36888, K663Q) | cell-free assay | 100%
Calcium/calmodulin-dependent protein kinase type IV (CAMK4, Homo sapiens, UniProt Q16566) | cell-free assay | 100%
Leukocyte tyrosine kinase receptor (LTK, Homo sapiens, UniProt P29376) | cell-free assay | 100%
Serine/threonine-protein kinase 32A (STK32A, Homo sapiens, UniProt Q8WU08) | cell-free assay | 100%
Dual specificity protein kinase CLK2 (CLK2, Homo sapiens, UniProt P49760) | cell-free assay | 100%
Mast/stem cell growth factor receptor Kit (KIT, Homo sapiens, UniProt P10721, D816H) | cell-free assay | 74%

Block 2
Cell line: HaCaT
Concentration: 100 µM
Time: 36 h
Structure (SMILES) | viability [%]
CCCc1cc(=O)[nH]c(=S)[nH]1 | 90.8
COC(c1ccccc1)(c1ccccc1)[C@H](Oc1nc(C)cc(C)n1)C(=O)O | 112
CC(=O)OC/C=C(C)/C=C/C=C(C)/C=C/C1=C(C)CCCC1(C)C | 82.7
Fc1ccc([C@@H]2CCNC[C@H]2COc2ccc3c(c2)OCO3)cc1 | 5.62
c1cc(CN2CCCNCCNCCCNCC2)ccc1CN1CCCNCCNCCCNCC1 | 94.8
O=C(O)CC(O)(CC(=O)O)C(=O)O | 85.1
O=C1CN(/N=C/c2ccc(-c3ccc([N+](=O)[O-])cc3)o2)C(O)=N1 | 69.5
N=C(N)N/N=C/c1c(Cl)cccc1Cl | 6.57
C=CCc1cc(OC)c(O)c(C(=O)NCCO)c1 | 98.4
CCCCC[C@H](O)/C=C/[C@H]1[C@H](O)CC(=O)[C@@H]1CCCCCCC(=O)O | 113
COc1cc(NS(C)(=O)=O)ccc1Nc1c2ccccc2nc2ccccc12 | 14.2
COCCCOc1cc(C[C@@H](C[C@H](N)[C@@H](O)C[C@H](C(=O)NCC(C)(C)C(N)=O)C(C)C)C(C)C)ccc1OC | 94.5
Oc1cc(O)c(Cl)cn1 | 97.5
CCNC(=O)CCC/C=C\C[C@@H]1[C@@H](/C=C/[C@@H](O)CCc2ccccc2)[C@H](O)C[C@@H]1O | 66.2
CCC(=O)OCC(=O)[C@@]1(OC(=O)CC)[C@@H](C)C[C@H]2[C@@H]3CCC4=CC(=O)C=C[C@]4(C)[C@@]3(F)[C@@H](O)C[C@@]21C | 96
Cc1cc(/C=C/C#N)cc(C)c1Nc1ccnc(Nc2ccc(C#N)cc2)n1 | 34
c1ccc2[nH]c(-c3cscn3)nc2c1 | 54
C[C@@H]1O[C@@H](OC[C@H]2O[C@@H](Oc3c(-c4ccc(O)c(O)c4)oc4cc(O)cc(O)c4c3=O)[C@H](O)[C@@H](O)[C@@H]2O)[C@H](O)[C@H](O)[C@H]1O | 97.1

Block 3
SMILES: O=C1NC(=O)c2c1c1c3ccccc3[nH]c1c1[nH]c3cc(Br)ccc3c21
Read-out: enzyme activity
Mode: inhibitor
Concentration: 0.5 µM
Reference: control
target | remaining activity [%]
Cyclin-dependent kinase 3, with cyclin E (CDK3, Homo sapiens, UniProt Q00526) | 88.1
Tyrosine-protein kinase ITK/TSK (ITK, Homo sapiens, UniProt Q08881) | 84.1
Proto-oncogene tyrosine-protein kinase Src (SRC, Homo sapiens, UniProt P12931) | 88.9
cAMP-dependent protein kinase catalytic subunit PRKX (PRKX, Homo sapiens, UniProt P51817) | 85.1
Serine/threonine-protein kinase 25 (STK25, Homo sapiens, UniProt O00506) | 84.4
MAP/microtubule affinity-regulating kinase 3 (MARK3, Homo sapiens, UniProt P27448) | 57.3
Serine/threonine-protein kinase MRCK alpha (CDC42BPA, Homo sapiens, UniProt Q5VT25) | 97.5
Tyrosine-protein kinase Fgr (FGR, Homo sapiens, UniProt P09769) | 88.8
Serine/threonine-protein kinase Nek11 (NEK11, Homo sapiens, UniProt Q8NG66) | 109
Insulin receptor (INSR, Homo sapiens, UniProt P06213) | 86.4
Tyrosine-protein kinase Fyn (FYN, Homo sapiens, UniProt P06241) | 95.2
Tyrosine-protein kinase Fer (FER, Homo sapiens, UniProt P16591) | 88.9
ALK tyrosine kinase receptor (ALK, Homo sapiens, UniProt Q9UM73) | 94
RAC-alpha serine/threonine-protein kinase (AKT1, Homo sapiens, UniProt P31749) | 101
Serine/threonine-protein kinase NLK (NLK, Homo sapiens, UniProt Q9UBE8) | 81.7
Homeodomain-interacting protein kinase 1 (HIPK1, Homo sapiens, UniProt Q86Z02) | 98.2
Vascular endothelial growth factor receptor 3 (FLT4, Homo sapiens, UniProt P35916) | 28
PAS domain-containing serine/threonine-protein kinase (PASK, Homo sapiens, UniProt Q96RG2) | 86.3
Serine/threonine-protein kinase N1 (PKN1, Homo sapiens, UniProt Q16512) | 66
Megakaryocyte-associated tyrosine-protein kinase (MATK, Homo sapiens, UniProt P42679) | 97.3
LIM domain kinase 1 (LIMK1, Homo sapiens, UniProt P53667) | 83.5
Serine/threonine-protein kinase TAO3 (TAOK3, Homo sapiens, UniProt Q9H2K8) | 82.3

Block 4
Species: mouse
Sample: microsomes or S9
Concentration: 2 µM
Time: 0.5 h
Structure (SMILES) | remaining compound [%]
Cc1c(C(=O)N2c3ccccc3CC2C)sc2nc(-c3ccccc3)cn12 (stereo not drawn) | 3.14
c1ccc2c(c1)cnn2CCCNc1ncnc2c1CCNCC2 | 90
COc1ccc(CCc2nc(CCS(C)(=O)=O)c(O)c(C(=O)O)c2C(=O)O)cc1 | 81.3
Cc1cc(-c2cc(O)cc(CCC3CCCCN3)c2)ccn1 (stereo not drawn) | 21.6
COC(=O)[C@@H]1C[C@H](C(=O)OC)CN(c2ccnc(N3C[C@H](C(=O)OC)C[C@H](C(=O)OC)C3)n2)C1 | 0.404
Cc1cc(C)cc(C(=O)c2c(C(C)C)c(=O)[nH]c(=O)n2Cc2cc(F)nc(F)c2)c1 | 54.4
CCc1[nH]c(C(=O)Nc2cc(S(=O)(=O)N3CCCC3)ccc2O)c(C)c1C(=O)OC | < 1
OCCNc1nc(Cl)nc(Nc2ccc3c(c2)OCO3)n1 | 18.4
COc1ccc(C2N=C(O)c3ccccc3O2)c(OC)c1OC (stereo not drawn) | 1.15
COc1cc(=O)[nH]cc1C(=O)N1CCC[C@H](CN2CCOCC2)C1 | 96.2
COC(=O)C(C)NC(=O)C12CC3(C)CC(C)(CC(C)(C3)C1)C2 (stereo not drawn) | 0.014
CCc1nc2cc(-c3ccc(OC)nc3)cnc2[nH]1 | 48.1
O=C(CNS(=O)(=O)c1cc(-c2noc(C3CCC3)n2)cs1)N1CCN(c2ccccc2)CC1 | 8.15
O=c1ccc2cc(S(=O)(=O)N3CCOCC3)ccc2[nH]1 | 79.2
CC(C)(C)/N=c1\[nH]c(-c2ccccc2O)nc2ccccc12 | 67.5
O=C1CC(c2ccsc2)c2ccc3ccccc3c2N1 (stereo not drawn) | 0.592
Cc1ccccc1Cc1c(C)nc2c(C(=O)N3CCc4c(c(-c5nncn5C)nn4C)C3)cnn2c1C | 0.0604
CN(CC(=O)O)C(=O)c1cc(S(=O)(=O)N(C)C)cs1 | 72.4
COC(=O)Nc1nc2cc(C(=O)c3ccccc3C(=O)OC(C)C)ccc2[nH]1 | 39.1

Some of these lines once more (block 4):
Structure (SMILES) | remaining compound [%]
CCc1[nH]c(C(=O)Nc2cc(S(=O)(=O)N3CCCC3)ccc2O)c(C)c1C(=O)OC | < 1
OCCNc1nc(Cl)nc(Nc2ccc3c(c2)OCO3)n1 | 18.4
COc1ccc(C2N=C(O)c3ccccc3O2)c(OC)c1OC (stereo not drawn) | 1.15
COc1cc(=O)[nH]cc1C(=O)N1CCC[C@H](CN2CCOCC2)C1 | 96.2
COC(=O)C(C)NC(=O)C12CC3(C)CC(C)(CC(C)(C3)C1)C2 (stereo not drawn) | 0.014
CCc1nc2cc(-c3ccc(OC)nc3)cnc2[nH]1 | 48.1
O=C(CNS(=O)(=O)c1cc(-c2noc(C3CCC3)n2)cs1)N1CCN(c2ccccc2)CC1 | 8.15
O=c1ccc2cc(S(=O)(=O)N3CCOCC3)ccc2[nH]1 | 79.2
CC(C)(C)/N=c1\[nH]c(-c2ccccc2O)nc2ccccc12 | 67.5
O=C1CC(c2ccsc2)c2ccc3ccccc3c2N1 (stereo not drawn) | 0.592
Cc1ccccc1Cc1c(C)nc2c(C(=O)N3CCc4c(c(-c5nncn5C)nn4C)C3)cnn2c1C | 0.0604
CN(CC(=O)O)C(=O)c1cc(S(=O)(=O)N(C)C)cs1 | 72.4
